# Measurements gathered from unrelated publications.
# Values joined by “and” are separate records of one study, mostly repeats; a detail may differ. ± gives the spread as reported.
SMILES,tested on,test,test system,conditions,how to read,quantity,value
CCCCN1C(=O)c2cccc3c(NCCCCN4CCOCC4)ccc(c23)C1=O,,,acetonitrile,,,fluorescence quantum yield,0.26
COc1ccc([C@@H]2CC(=O)c3c(O)cc(O[C@@H]4O[C@H](CO)[C@@H](O)[C@H](O)[C@H]4O[C@@H]4O[C@@H](C)[C@H](O)[C@@H](O)[C@H]4O)cc3O2)cc1O,,,"Sprague-Dawley rat, male, obese, plasma","intravenous, 4 mg/kg",,Tmax,1.83 ± 1.89 h
COC(=O)c1ccc(CN2CCCC(CCC(=O)NCc3ccc(C)o3)C2)cc1 (stereo not drawn),Trypanosoma cruzi,"reporter mRNA translation, inhibitor, measured: capped polyadenylated Renilla luciferase mRNA",cell-free extract,concentration not given,relative to: control RNA,relative translation,104%
Cc1c(Cc2ccc(F)c(OC(C)C(=O)O)c2)c2ccc(C(=O)NC(C)c3ccc(C(C)(C)C)cc3)cc2n1CC1CCC1 (stereo not drawn),,,mouse liver microsomes,"1 µM, with: microsomes 1 mg/mL",,half-life,> 1 h
CC(C)(O)c1ncc([S@](N)(=O)=NC(=O)Nc2c3c(cc4c2CCC4)CCC3)s1,,,healthy human subjects,"oral, 100 mg, tablet, fed",,subjects with gastrointestinal adverse events,17%
C=C(NC(=O)c1csc(-c2nc3c(cc2O)-c2nc(cs2)C(=O)NC(C(C)O)C(=O)NC(=C(C)OC)c2nc(cs2)C(=O)NC2c4nc(cs4)C(=O)NC(COC(=O)c4c5c6c(cccc6n4O)COC(=O)C(OC4CC(C)(O)C(N(C)C)C(C)O4)C2OC5)c2nc-3cs2)n1)C(N)=O (stereo not drawn),,measured: parent drug,"Sprague-Dawley rats, both sexes, bile","intravenous, 6 mg/kg, 24 h",,biliary excretion,26%
CC(=O)N[C@@H](CCCCN)C(=O)NCCCCCC(=O)N[C@H](C(=O)N[C@@H](CO)C(=O)N[C@@H](Cc1ccccc1)C(=O)N[C@]1(C)CCCCCCC=CCCC[C@@](C)(C(=O)N[C@@H](CCC(=O)O)C(=O)N[C@@H](CC(N)=O)C(=O)N[C@@H](Cc2ccccc2)C(N)=O)NC(=O)[C@H](CC(C)C)NC(=O)[C@H](CC(C)C)NC(=O)[C@H](C)NC(=O)[C@H](Cc2c[nH]c3ccccc23)NC(=O)[C@H](Cc2ccc(O)cc2)NC(=O)[C@H](CCC(=O)O)NC1=O)[C@@H](C)O,,RP-HPLC C12,,35 min gradient 5–95% acetonitrile,,retention time,21.8 min
CN1CCCNC(=O)c2cccc(c2)C(=O)NCCCN(C)CCCNc2cccc3c2C(=O)c2cccc(c2C3=O)NCCC1,,,mouse xenograft model,"dose not given, day 4",,body weight,26 g and 24 g and 27 g
COCC1CN(C2CCN(c3cc(OC)c(Nc4ncc(Br)c(Nc5ccc6c(c5P(C)(C)=O)OCCO6)n4)cc3C)CC2)C1,,phase 1 trial,"human, advanced EGFR-mutant NSCLC","oral, dose not given",,patients with any adverse event,100%
C=CC(=O)N1CCCC(n2c(=O)c3ncccc3n(Cc3ccc(Oc4ccccc4)cc3)c2=O)C1 (stereo not drawn),,metabolic stability,"male beagle dog, hepatocytes","1 µM, 30 min",,compound remaining,67%
CC1(N(CC(=O)O)CC(=O)O)CN(CC(=O)O)CCN(CC(=O)O)C1,,"pH-potentiometry, measured: logK4H",0.15 M NaClO4,25 °C,,protonation constant (log),1.94
C/C(N)=N/C(=N\S(=O)(=O)c1ccc(C(F)(F)F)cc1)N1C[C@H](c2ccccc2)C(c2ccc(Cl)cc2)=N1,,,"male Sprague-Dawley rat, bile-duct cannulated","intravenous, 3 mg/kg",relative to: dose,biliary excretion,0.97%
Oc1cccc(-c2cccc(O)n2)n1.[Cl-].[Cl-].[Ru+2].c1ccc(-c2ccnc3c2ccc2c(-c4ccccc4)ccnc23)cc1.c1ccc(-c2ccnc3c2ccc2c(-c4ccccc4)ccnc23)cc1,,,acetonitrile,basic deprotonated form,,singlet oxygen quantum yield,< 0.01
C=CC(=O)Nc1cc(Nc2nccc(-c3c[nH]c4ccccc34)n2)c(OC)cc1N(C)CCN(C)C,,storage stability,human dried blood spot,"30 d, on ice, LQC level",,recovery,54.4%
O=C(Nc1cnccc1-c1ccc([18F])nc1)c1ccnc(NC(=O)C2CC2)c1,,,"FVB/NJ mice (both sexes), thalamus","intravenous, dose not given, 120 min",,SUV,0.025
O=C(CCc1ccc(CNC(C(=O)OC2CCCC2)C2CCCCC2)cn1)NO (stereo not drawn),,,"healthy male humans, plasma","oral, 40 mg, single dose",relative to: fed over fasted,Cmax ratio,0.33
COc1ccc(C(N)=O)cn1,,,"Han Wistar rats, male, plasma","oral, 30 mg/kg, 1.00 h",,concentration at time,94 µM
O=C(Nc1ccccc1)C12CC3CC(C1)CC(n1cnc([N+](=O)[O-])n1)(C3)C2,Trypanosoma cruzi,"reporter mRNA translation, inhibitor, measured: capped polyadenylated Renilla luciferase mRNA",cell-free extract,concentration not given,relative to: control RNA,relative translation,112%

# Repeated from above:
SMILES,tested on,test,test system,conditions,how to read,quantity,value
C=CC(=O)Nc1cc(Nc2nccc(-c3c[nH]c4ccccc34)n2)c(OC)cc1N(C)CCN(C)C,,storage stability,human dried blood spot,"30 d, on ice, LQC level",,recovery,54.4%
O=C(Nc1cnccc1-c1ccc([18F])nc1)c1ccnc(NC(=O)C2CC2)c1,,,"FVB/NJ mice (both sexes), thalamus","intravenous, dose not given, 120 min",,SUV,0.025
